Experimental data collected from several papers.
Protocols differ between the studies behind these lines. Numbers after ± are the reported error.
UCHL1: Ubiquitin carboxyl-terminal hydrolase isozyme L1 (UCHL1, Homo sapiens, UniProt P09936)
TOP2B: DNA topoisomerase 2-beta (TOP2B, Homo sapiens, UniProt Q02880)
ADRA2C: Alpha-2C adrenergic receptor (ADRA2C, Homo sapiens, UniProt P18825)
Voltage-dependent P/Q-type calcium channel subunit alpha-1A: Voltage-dependent P/Q-type calcium channel subunit alpha-1A (Homo sapiens, UniProt O00555)

CC(=O)Nc1ccc(C=C(C#N)C(=O)NC2CCCCC2)cc1 has a labelling of 10.9% (UCHL1; covalent, intact protein LC-MS; 12.5 µM).
For CC(=O)N[C@@H](Cc1ccccc1Cl)C(=O)N1CCC[C@H]1C(=O)N1CCC[C@H]1C(=O)N1CCC[C@H]1C(=O)N1CCC[C@H]1C(=O)O, “binding free energy” read -6.64 kcal/mol (Vasodilator-stimulated phosphoprotein, EVH1 domain (VASP, Homo sapiens, UniProt P50552); fluorescence titration; 25 °C).
C=CC(=O)N1CCC(COCC(=O)N2CCN(c3nc(-c4cnc(N)nc4C(F)F)nc(N4CCOC[C@@H]4C)n3)CC2)CC1 has a remaining binding of 50% (Tyrosine-protein kinase ABL1, non-phosphorylated (ABL1, Homo sapiens, UniProt P00519, F317L); KINOMEscan; 1 µM).
Cc1cc(C)c(NC(=O)C(C#N)=Cc2ccccc2)c(C)c1 has a labelling of 17.2% (UCHL1; covalent, intact protein LC-MS; 12.5 µM).
For O=c1nc(SCc2cc(F)cc(C(F)(F)F)c2)nc(SCc2ccc3sccc3c2)[nH]1, the decatenated DNA was 0% (TOP2B; decatenation; 125 µM, replicate 1).
With Cc1ccnc([18F])c1-c1cccc(N2C[C@H](N3CCN(C(=O)c4nccs4)CC3)CC2=O)c1 the Bmax was 41.9 nmol/g (Monoglyceride lipase (Macaca mulatta, UniProt H9ESL3); PET Scatchard plot; rhesus monkey, brain CB; baseline).
For Cc1cc(Oc2ncccc2CN2CCN(c3ccc(C(F)(F)F)cn3)CC2)ccc1-c1c(C)c(=O)[nH]c(=O)n1C, the selectivity ratio was 5 (ADRA2C; binding, radioligand binding; together with: [3H]rauwolscine; baseline: Ki alpha2A over Ki alpha2C).
Cc1nc(CSc2nc(SCc3ccc(C(C)C)cc3)nc(=O)[nH]2)cs1 gave a decatenated DNA of 0.25% (TOP2B; decatenation; 125 µM, replicate 1).
CC[C@@H]1[C@H](F)C(=O)N[C@@H]1COc1nccc2cc(C(N)=O)c(OC)cc12 has an inhibition of 7.6% (STK38L (Homo sapiens, UniProt Q9Y2H1); ATP-site probe binding, ActivX profiling; THP-1 cell lysate; 0.04 mM, Lys2 site).
The remaining activity of O=C(O)c1occc1S(=O)(=O)NCc1cc2cc(F)ccc2[nH]1 is reported as 111% (malate dehydrogenase; enzyme activity, inhibitor; 200 µM, pH 7.0, 1% DMSO, aggregation counter-screen).
For CC12CC3CC(C)(C1)CC(N)(C3)C2, the inhibition was 34% (Voltage-dependent P/Q-type calcium channel subunit alpha-1A; ion current, antagonist; HEK293; 3 µM).
OC[C@H]1OC(O)[C@H](O)[C@@H](O)[C@@H]1O (some centres unmarked) gave a kcat of 70 ± 5 s⁻¹ (Hexokinase-3 (HK3, Homo sapiens, UniProt P52790, E254A); substrate inhibition; mutant E254A, complete substrate inhibition model, together with: ATP 20 mM).
Cn1c(=O)oc2cc(C(=O)CCl)ccc21 has a labelling of 32.2% (UCHL1; covalent, intact protein LC-MS; 12.5 µM).
CC/C=C(\C)C=O gave a conversion of 40% (Uncharacterized protein PH0856 (Pyrococcus horikoshii, UniProt O58586); substrate; pH 7, 30 °C, anaerobic, shaking 300 rpm, together with: NADPH).
With CC(=Cc1ccccc1)C=C(C#N)C(=O)Nc1nccs1 the labelling was 16.6% (UCHL1; covalent, intact protein LC-MS; 12.5 µM).
CC(C)[C@@H]1NC(=O)[C@H](CO)NC(=O)[C@H](CO)NC(=O)[C@H](CO)N(C)C(=O)[C@H](CC(=O)O)NC(=O)[C@H](CO)NC(=O)[C@H](Cc2ccccc2)NC(=O)CSC[C@@H](C(=O)NCC(N)=O)NC(=O)[C@H](CC(N)=O)NC(=O)[C@H](CCCNC(=N)N)NC(=O)[C@H](Cc2ccc(-c3ccccc3)cc2)NC(=O)[C@H](Cc2ccc(-c3ccccc3)cc2)NC(=O)[C@H](CC(N)=O)NC(=O)[C@@H]2CCCN2C1=O has a Hill coefficient of about 1 (MDM2 (Homo sapiens, UniProt Q00987); inhibitor, TR-FRET; together with: p53 peptide).
N#CC(=Cc1cccc2ccccc12)C(=O)NCc1ccc(Cl)cc1 has a labelling of 10.7% (UCHL1; covalent, intact protein LC-MS; 12.5 µM).
CCC(C)(C)C(=O)O[C@H]1C[C@@H](C)C=C2C=C[C@H](C)[C@H](CC[C@@H]3C[C@@H](O)CC(=O)O3)[C@H]21 gave an inhibition of 59% (Voltage-dependent P/Q-type calcium channel subunit alpha-1A; ion current, antagonist; HEK293; 3 µM).
CC12CCC(C(=O)O)(c3nc(C#N)c(C#N)nc31)C2(C)C (centres unmarked) gave a labelling of 10.5% (UCHL1; covalent, intact protein LC-MS; 12.5 µM).
COc1ccc(CCN(C)CCCC(C#N)(c2ccc(OC)c(OC)c2)C(C)C)cc1OC (centres unmarked) gave an inhibition of 5.7% (Trypanosoma cruzi; reporter translation, Renilla luciferase mRNA translation; cell-free extract; 40 µM; baseline: DMSO).
For O=C(c1ccc(OCCN2CCCCC2)cc1)c1c(-c2ccc(O)cc2)sc2cc(O)ccc12, the EC90 was 11.5 µM (Toxoplasma gondii; parasite growth; HFF, bradyzoite, alkaline-induced).
Cc1cc(Oc2ncccc2CN2CCN(c3cccc(F)c3)CC2)ccc1-c1c(C)c(=O)[nH]c(=O)n1C gave a selectivity ratio of 3 (ADRA2C; binding, radioligand binding; together with: [3H]rauwolscine; baseline: Ki alpha2B over Ki alpha2C).
For CCOc1cc(CN2CCCC(CNC(=O)c3ccc(F)cc3)C2)ccc1OC (centres unmarked), the inhibition was 3.4% (Trypanosoma cruzi; reporter translation, Renilla luciferase mRNA translation; cell-free extract; 40 µM; baseline: DMSO).

A few entries again:
With Cc1ccnc([18F])c1-c1cccc(N2C[C@H](N3CCN(C(=O)c4nccs4)CC3)CC2=O)c1 the Bmax was 41.9 nmol/g (Monoglyceride lipase (Macaca mulatta, UniProt H9ESL3); PET Scatchard plot; rhesus monkey, brain CB; baseline).
For CCOc1cc(CN2CCCC(CNC(=O)c3ccc(F)cc3)C2)ccc1OC (centres unmarked), the inhibition was 3.4% (Trypanosoma cruzi; reporter translation, Renilla luciferase mRNA translation; cell-free extract; 40 µM; baseline: DMSO).
CC(C)[C@@H]1NC(=O)[C@H](CO)NC(=O)[C@H](CO)NC(=O)[C@H](CO)N(C)C(=O)[C@H](CC(=O)O)NC(=O)[C@H](CO)NC(=O)[C@H](Cc2ccccc2)NC(=O)CSC[C@@H](C(=O)NCC(N)=O)NC(=O)[C@H](CC(N)=O)NC(=O)[C@H](CCCNC(=N)N)NC(=O)[C@H](Cc2ccc(-c3ccccc3)cc2)NC(=O)[C@H](Cc2ccc(-c3ccccc3)cc2)NC(=O)[C@H](CC(N)=O)NC(=O)[C@@H]2CCCN2C1=O has a Hill coefficient of about 1 (MDM2 (Homo sapiens, UniProt Q00987); inhibitor, TR-FRET; together with: p53 peptide).
